Published values pooled from the literature.
Lines come from different studies, so protocols differ.

| Structure (SMILES) | system | setting | Cmax |
| --- | --- | --- | --- |
| Cc1cc(NC(=O)[C@H](O)c2cc(F)cc(F)c2)ccc1-c1cnc(N)c(C(=O)NC(C)C)c1 | female nude mouse, plasma | oral, 30 mg/kg, single dose | 3670 ng/mL |
| Cc1ncsc1-c1ccc(CNC(=O)[C@@H]2C[C@@H](O)CN2C(=O)[C@@H](NC(=O)COCC(C)(COCCOCCOCCNC(=O)C[C@@H]2N=C(c3ccc(Cl)cc3)c3c(sc(C)c3C)-n3c(C)nnc32)COCCOCCOCCNC(=O)C[C@@H]2N=C(c3ccc(Cl)cc3)c3c(sc(C)c3C)-n3c(C)nnc32)C(C)(C)C)cc1 | male C57BL/6 mouse, plasma | subcutaneous, 5 mg/kg, single dose | 3830 ng/mL |
| CN[C@H](CC(C)C)C(=O)N[C@H]1C(=O)N[C@@H](CC(N)=O)C(=O)N[C@H]2C(=O)N[C@H]3C(=O)N[C@H](C(=O)N[C@H](C(=O)N[C@H](CCCNC(=N)N)C(N)=O)c4cc(O)cc(O)c4-c4cc3ccc4O)[C@H](O)c3ccc(c(Cl)c3)Oc3cc2cc(c3O[C@@H]2O[C@H](CO)[C@@H](O)[C@H](O)[C@H]2O[C@H]2C[C@](C)(N)[C@H](O)[C@H](C)O2)Oc2ccc(cc2Cl)[C@H]1O | female CD-1 mouse, plasma | intravenous, 1 mg/kg, single dose | 3270 ng/mL |
| C[C@@]1(c2nc(-c3ccc(F)c4cn[nH]c34)no2)CCCN(C(=O)c2ccc(F)nc2)C1 | male C57BL/6 mouse, plasma | intraperitoneal, 20 mg/kg | 7570 ng/mL |
| COc1ccccc1/C=C/CNCC(O)COc1ccc(Nc2ccccc2)cc1 (racemic) | mouse, plasma | oral, 10 mg/kg | 58.6 ng/mL |
| Nc1ccc(-c2cc(Cl)c(Cl)c3[nH]c4c(c23)CN(C(=O)CO)CC4)cn1 | C57BL/6 mouse, blood | oral, 20 mg/kg | 1.73 µM |
| CC(=O)N1c2ccc(-c3ccc(CNC(=O)c4cn5cc(-c6cnc(N)nc6)nc(N6CCOCC6)c5n4)cc3)cc2CC[C@@H]1C | female C57BL/6 mouse, plasma | intraperitoneal, 45 mg/kg, single dose | 43.9 µM |
| Fc1cccc(-n2cc(-c3ccccc3)nc2NCc2ccc(C(F)(F)F)c(F)c2)c1 | male CD-1 mouse, plasma | intraperitoneal, 25 mg/kg, single dose | 4960 ng/mL |
| Cn1ccc(-c2cc(Cl)c(Cl)c3[nH]c4c(c23)CN(C(=O)CO)CC4)n1 | C57BL/6 mouse, blood | oral, 20 mg/kg | 19.6 µM |
| CCC(=O)N1CCC=C(c2cc3c(Nc4cc5ncsc5cc4F)ncnc3s2)C1 | mouse, plasma | intravenous, 10 mg/kg | 6030 ng/mL |
| O=C(OC(C(F)(F)F)C(F)(F)F)N1CCC(CNS(=O)(=O)c2ccc(Cl)cc2)CC1 | male SCID mouse, plasma | oral, 30 mg/kg | 1780 ng/mL |
| COc1cnc2cccc(N3CCc4c(cc(Cn5ccnc5)cc4-c4cn(C)nc4C(F)(F)F)C3=O)c2c1 | male CD-1 mouse, plasma | intraperitoneal, 50 mg/kg | 26800 ng/mL |
| COc1ccc2nc(NC(c3ccc(O)cc3)P(=O)(OC)OC)sc2c1 (centres unmarked) | mouse, plasma | intravenous, 10 mg/kg | 2130 ng/mL |
| Cc1cc(NCC(=O)C(C)C)c2nc(N3CCOC[C@H]3C)cc(=O)n2c1 | C57BL/6 mouse, plasma | intraperitoneal, 10 mg/kg, single dose | 2770 ng/mL |
| C/C(N)=N/C(=N\S(=O)(=O)c1ccc(C(F)(F)F)cc1)N1C[C@H](c2ccccc2)C(c2ccc(Cl)cc2)=N1 | C57BL/6 mouse, muscle | intravenous, 10 mg/kg | 3760 ng/mL |
| N#CCCC1CCN(C(=S)c2ccc(-c3cc(Cl)ccc3Cl)o2)CC1 | male BALB/c mouse, plasma | oral, 10 mg/kg | 4.55 ng/mL |
| CC[C@H](C)/C=C/C=C/C=C/C(O)=C/C(=O)C(F)(F)F | female C57BL/6 mouse, plasma | oral, 25 mg/kg | 27.9 µM |
| CCn1cc(-c2cc(Cn3ccnc3)cc3c2CCN([C@H](c2cc(OC)ccn2)C2CC2)C3=O)c(C(F)(F)F)n1 | male CD-1 mouse, plasma | oral, 50 mg/kg | 6550 ng/mL |
| CC(=O)N1CCC=C(c2cc3c(Nc4cc5ncsc5cc4F)ncnc3s2)C1 | mouse, plasma | intravenous, 10 mg/kg | 14600 ng/mL |
| O=C(NCCCCc1ccccc1)n1c(=O)oc2cc(-c3ccc(F)cc3)ccc21 | CD-1 mouse, plasma | intravenous, 1 mg/kg | 628 ng/mL |
| Fc1cncc(-c2ccc3[nH]c4ncnc(N[C@H]5CC[C@H](N6CCOCC6)CC5)c4c3c2)c1 | CD-1 mouse, plasma | oral, 10 mg/kg | 3330 ng/mL |
| COC1C(c2ccc(Cl)c(Cc3ccc(OC4CCOC4)cc3)c2)OC(CO)C(O)C1O (centres unmarked) | CD-1 mouse, plasma | oral, 10 mg/kg | 7970 ng/mL |
| O=S(=O)(N[C@H]1CCO[C@@H](C2c3ccccc3CCc3ccccc32)C1)c1ccc(OC(F)(F)F)cc1 | mouse, plasma | oral, 30 mg/kg | 1150 ng/mL |
| O=C(C1CC1)N1CCC=C(c2cc3c(Nc4cc5ncsc5cc4F)ncnc3s2)C1 | mouse, plasma | intravenous, 10 mg/kg | 5760 ng/mL |
| Cn1c2cc([S+](C)[O-])sc2c2cnn(Cc3cccc(N)c3)c(=O)c21 (centres unmarked) | male BALB/c mouse, plasma | intraperitoneal, 50 mg/kg, single dose | 25800 ng/mL |
| CC(C)NC(=O)NC1CC=C(c2cc3c(Nc4cc5ncsc5cc4F)ncnc3s2)CC1 (racemic) | mouse, plasma | intravenous, 10 mg/kg | 4330 ng/mL |
| Oc1ccc([C@@H]2Oc3ccc(O)cc3[C@@H]3CCC[C@@H]32)cc1 | male C57BL/6 mouse, plasma | oral, 10 mg/kg | 0.27 µM |
| CCC(=O)NC1CC=C(c2cc3c(Nc4cc5ncsc5cc4F)ncnc3s2)CC1 (racemic) | mouse, plasma | oral, 10 mg/kg | 2560 ng/mL |
| COC(=O)C1=CNC=C(C(=O)OC)C1c1ccc(F)c(C(F)(F)F)c1 | male C57BL/6 mouse, plasma | intravenous, 2 mg/kg | 2910 ng/mL |

Excerpt of the above:
| Structure (SMILES) | system | setting | Cmax |
| --- | --- | --- | --- |
| Cc1ncsc1-c1ccc(CNC(=O)[C@@H]2C[C@@H](O)CN2C(=O)[C@@H](NC(=O)COCC(C)(COCCOCCOCCNC(=O)C[C@@H]2N=C(c3ccc(Cl)cc3)c3c(sc(C)c3C)-n3c(C)nnc32)COCCOCCOCCNC(=O)C[C@@H]2N=C(c3ccc(Cl)cc3)c3c(sc(C)c3C)-n3c(C)nnc32)C(C)(C)C)cc1 | male C57BL/6 mouse, plasma | subcutaneous, 5 mg/kg, single dose | 3830 ng/mL |
| CN[C@H](CC(C)C)C(=O)N[C@H]1C(=O)N[C@@H](CC(N)=O)C(=O)N[C@H]2C(=O)N[C@H]3C(=O)N[C@H](C(=O)N[C@H](C(=O)N[C@H](CCCNC(=N)N)C(N)=O)c4cc(O)cc(O)c4-c4cc3ccc4O)[C@H](O)c3ccc(c(Cl)c3)Oc3cc2cc(c3O[C@@H]2O[C@H](CO)[C@@H](O)[C@H](O)[C@H]2O[C@H]2C[C@](C)(N)[C@H](O)[C@H](C)O2)Oc2ccc(cc2Cl)[C@H]1O | female CD-1 mouse, plasma | intravenous, 1 mg/kg, single dose | 3270 ng/mL |
| C[C@@]1(c2nc(-c3ccc(F)c4cn[nH]c34)no2)CCCN(C(=O)c2ccc(F)nc2)C1 | male C57BL/6 mouse, plasma | intraperitoneal, 20 mg/kg | 7570 ng/mL |
| COc1ccccc1/C=C/CNCC(O)COc1ccc(Nc2ccccc2)cc1 (racemic) | mouse, plasma | oral, 10 mg/kg | 58.6 ng/mL |
